Measurements pooled from the literature.
Every numbered part comes from another study and shows a few of its results, in no order. “And” joins repeats or separate records; there may be more than shown.
Chain of UniProt Q12851 (whole entry, looked up): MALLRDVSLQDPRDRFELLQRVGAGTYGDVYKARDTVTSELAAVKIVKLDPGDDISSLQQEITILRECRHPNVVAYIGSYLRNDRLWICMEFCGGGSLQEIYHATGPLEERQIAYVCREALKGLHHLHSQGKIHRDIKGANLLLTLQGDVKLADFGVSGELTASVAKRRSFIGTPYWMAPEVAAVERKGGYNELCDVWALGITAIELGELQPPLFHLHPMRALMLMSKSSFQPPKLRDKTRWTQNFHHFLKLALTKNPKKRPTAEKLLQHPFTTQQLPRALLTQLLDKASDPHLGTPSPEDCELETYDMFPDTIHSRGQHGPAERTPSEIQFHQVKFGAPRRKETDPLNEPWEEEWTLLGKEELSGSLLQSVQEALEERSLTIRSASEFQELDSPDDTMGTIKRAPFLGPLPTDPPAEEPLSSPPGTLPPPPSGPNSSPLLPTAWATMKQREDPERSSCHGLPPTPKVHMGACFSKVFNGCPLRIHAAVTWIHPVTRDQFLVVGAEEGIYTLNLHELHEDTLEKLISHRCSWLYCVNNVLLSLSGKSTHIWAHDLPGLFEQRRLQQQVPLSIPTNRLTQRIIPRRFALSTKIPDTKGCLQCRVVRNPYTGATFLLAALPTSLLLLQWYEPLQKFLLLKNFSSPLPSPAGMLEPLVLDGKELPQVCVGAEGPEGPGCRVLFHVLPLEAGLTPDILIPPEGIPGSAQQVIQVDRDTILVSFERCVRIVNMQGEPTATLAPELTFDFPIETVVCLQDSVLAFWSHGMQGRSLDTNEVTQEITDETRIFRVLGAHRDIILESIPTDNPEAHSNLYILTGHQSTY
Chain of UniProt O75716 (whole entry, looked up): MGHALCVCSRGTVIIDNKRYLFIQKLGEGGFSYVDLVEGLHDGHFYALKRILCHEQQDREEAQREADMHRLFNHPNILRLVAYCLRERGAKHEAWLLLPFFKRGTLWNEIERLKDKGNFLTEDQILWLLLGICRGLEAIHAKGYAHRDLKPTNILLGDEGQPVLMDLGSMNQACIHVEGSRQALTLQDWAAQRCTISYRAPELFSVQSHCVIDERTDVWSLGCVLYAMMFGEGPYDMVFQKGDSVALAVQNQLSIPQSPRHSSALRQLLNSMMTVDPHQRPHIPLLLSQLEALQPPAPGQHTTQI
Chain of UniProt Q8NE63 (whole entry, looked up): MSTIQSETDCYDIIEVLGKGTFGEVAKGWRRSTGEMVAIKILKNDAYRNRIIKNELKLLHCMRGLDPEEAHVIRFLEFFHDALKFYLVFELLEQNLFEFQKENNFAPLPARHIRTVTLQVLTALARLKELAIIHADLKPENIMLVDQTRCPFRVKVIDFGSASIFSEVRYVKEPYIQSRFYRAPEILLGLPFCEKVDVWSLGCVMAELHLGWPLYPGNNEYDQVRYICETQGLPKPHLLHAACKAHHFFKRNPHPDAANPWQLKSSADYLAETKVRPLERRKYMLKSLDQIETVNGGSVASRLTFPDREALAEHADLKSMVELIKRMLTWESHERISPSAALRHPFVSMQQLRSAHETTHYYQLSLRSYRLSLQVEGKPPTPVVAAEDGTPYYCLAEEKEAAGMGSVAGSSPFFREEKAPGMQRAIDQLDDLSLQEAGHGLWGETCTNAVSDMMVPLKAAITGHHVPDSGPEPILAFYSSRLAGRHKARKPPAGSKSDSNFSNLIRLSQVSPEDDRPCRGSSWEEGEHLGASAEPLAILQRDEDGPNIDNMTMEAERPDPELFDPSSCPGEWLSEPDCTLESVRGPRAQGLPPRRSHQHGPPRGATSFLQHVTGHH
Chain of UniProt P08581 (whole entry, looked up): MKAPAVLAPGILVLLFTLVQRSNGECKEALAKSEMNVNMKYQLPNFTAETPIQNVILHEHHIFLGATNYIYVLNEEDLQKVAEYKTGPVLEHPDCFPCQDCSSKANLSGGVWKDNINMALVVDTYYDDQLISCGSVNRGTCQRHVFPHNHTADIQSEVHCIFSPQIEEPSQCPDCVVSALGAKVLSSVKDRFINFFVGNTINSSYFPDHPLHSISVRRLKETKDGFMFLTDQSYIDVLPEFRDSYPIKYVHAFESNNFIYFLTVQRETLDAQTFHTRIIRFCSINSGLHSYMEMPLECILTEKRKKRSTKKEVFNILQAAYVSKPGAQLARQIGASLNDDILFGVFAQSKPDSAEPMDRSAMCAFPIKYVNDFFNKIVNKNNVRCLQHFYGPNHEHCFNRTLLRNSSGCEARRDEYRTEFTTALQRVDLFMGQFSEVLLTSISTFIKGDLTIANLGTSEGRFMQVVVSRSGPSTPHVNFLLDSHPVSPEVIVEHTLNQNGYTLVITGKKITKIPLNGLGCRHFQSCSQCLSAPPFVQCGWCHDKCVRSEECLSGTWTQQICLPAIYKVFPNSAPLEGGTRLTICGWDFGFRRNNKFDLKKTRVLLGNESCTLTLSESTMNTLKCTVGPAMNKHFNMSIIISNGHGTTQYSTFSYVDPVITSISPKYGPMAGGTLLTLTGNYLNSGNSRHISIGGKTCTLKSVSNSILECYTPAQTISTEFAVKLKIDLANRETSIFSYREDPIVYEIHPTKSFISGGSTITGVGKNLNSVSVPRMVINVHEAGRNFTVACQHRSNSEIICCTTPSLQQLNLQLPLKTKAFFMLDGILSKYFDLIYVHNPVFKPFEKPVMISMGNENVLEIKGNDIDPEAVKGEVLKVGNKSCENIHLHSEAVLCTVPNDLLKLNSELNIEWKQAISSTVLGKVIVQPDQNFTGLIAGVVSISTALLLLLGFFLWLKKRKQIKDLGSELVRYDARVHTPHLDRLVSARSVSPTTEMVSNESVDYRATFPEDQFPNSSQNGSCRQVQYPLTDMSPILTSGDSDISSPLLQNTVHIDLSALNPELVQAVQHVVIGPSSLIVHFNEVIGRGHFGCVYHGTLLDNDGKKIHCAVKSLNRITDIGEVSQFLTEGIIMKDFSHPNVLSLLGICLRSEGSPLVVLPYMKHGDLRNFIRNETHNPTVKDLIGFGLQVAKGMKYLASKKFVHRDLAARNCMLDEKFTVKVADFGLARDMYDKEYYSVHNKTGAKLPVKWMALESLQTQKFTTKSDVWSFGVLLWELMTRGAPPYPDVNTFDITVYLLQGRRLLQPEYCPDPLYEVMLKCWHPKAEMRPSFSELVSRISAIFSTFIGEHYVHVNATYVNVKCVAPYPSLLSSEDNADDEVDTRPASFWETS
Chain of UniProt Q9UL54 (whole entry, looked up): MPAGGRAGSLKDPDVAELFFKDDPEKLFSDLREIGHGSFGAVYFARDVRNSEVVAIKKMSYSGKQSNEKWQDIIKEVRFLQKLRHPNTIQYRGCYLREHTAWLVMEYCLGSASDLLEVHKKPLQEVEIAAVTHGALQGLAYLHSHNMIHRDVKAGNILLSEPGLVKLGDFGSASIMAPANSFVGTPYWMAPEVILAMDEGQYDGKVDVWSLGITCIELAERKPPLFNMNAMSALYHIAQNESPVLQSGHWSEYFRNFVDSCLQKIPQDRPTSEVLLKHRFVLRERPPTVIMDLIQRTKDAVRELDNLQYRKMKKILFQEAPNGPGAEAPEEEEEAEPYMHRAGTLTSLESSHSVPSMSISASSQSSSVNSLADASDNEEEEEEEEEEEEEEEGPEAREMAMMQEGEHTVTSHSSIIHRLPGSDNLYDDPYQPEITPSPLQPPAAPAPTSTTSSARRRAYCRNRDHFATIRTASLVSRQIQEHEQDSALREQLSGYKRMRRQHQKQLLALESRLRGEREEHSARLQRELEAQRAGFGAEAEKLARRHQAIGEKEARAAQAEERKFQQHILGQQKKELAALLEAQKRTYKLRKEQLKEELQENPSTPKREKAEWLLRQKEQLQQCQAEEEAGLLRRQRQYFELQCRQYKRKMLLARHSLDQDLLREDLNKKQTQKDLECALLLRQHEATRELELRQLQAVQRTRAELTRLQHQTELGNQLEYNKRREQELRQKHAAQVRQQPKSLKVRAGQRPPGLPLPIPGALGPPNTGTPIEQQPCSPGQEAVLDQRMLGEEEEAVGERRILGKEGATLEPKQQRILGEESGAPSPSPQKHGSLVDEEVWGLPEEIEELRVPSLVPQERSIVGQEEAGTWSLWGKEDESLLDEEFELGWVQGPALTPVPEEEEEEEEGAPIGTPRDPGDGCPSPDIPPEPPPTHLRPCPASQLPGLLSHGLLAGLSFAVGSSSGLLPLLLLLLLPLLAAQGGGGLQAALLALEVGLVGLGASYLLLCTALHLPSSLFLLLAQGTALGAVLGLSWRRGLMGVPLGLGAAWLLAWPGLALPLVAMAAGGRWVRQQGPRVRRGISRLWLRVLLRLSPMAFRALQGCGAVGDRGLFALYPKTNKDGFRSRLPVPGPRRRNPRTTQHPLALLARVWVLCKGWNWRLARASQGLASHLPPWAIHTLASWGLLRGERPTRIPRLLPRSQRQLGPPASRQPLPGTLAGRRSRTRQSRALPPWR
Chain of UniProt Q9UPE1 (whole entry, looked up): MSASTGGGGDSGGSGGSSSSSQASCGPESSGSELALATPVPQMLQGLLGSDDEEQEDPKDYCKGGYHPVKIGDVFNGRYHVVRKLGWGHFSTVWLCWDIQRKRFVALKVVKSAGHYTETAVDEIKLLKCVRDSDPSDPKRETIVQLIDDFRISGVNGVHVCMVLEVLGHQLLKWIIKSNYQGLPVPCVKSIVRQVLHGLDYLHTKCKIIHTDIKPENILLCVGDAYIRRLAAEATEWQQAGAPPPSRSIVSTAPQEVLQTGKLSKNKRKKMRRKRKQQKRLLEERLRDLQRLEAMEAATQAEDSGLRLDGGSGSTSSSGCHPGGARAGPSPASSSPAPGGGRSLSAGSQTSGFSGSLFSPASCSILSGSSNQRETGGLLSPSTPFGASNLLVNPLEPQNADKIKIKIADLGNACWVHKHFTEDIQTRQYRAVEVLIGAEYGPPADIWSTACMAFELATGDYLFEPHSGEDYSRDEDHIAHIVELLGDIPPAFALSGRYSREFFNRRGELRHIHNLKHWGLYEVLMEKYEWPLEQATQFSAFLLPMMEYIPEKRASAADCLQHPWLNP

Set 1
SMILES: C=CC(=O)N1CCN(c2nc(OC[C@@H]3CCCN3C)nc3c2CCN(c2cccc4cccc(C)c24)C3)C[C@@H]1CC#N
Observed: binding
Mode: competitor
Technique: NanoBRET
Cells: HEK293
KRAS Q61L: GTPase KRas (KRAS, Homo sapiens, UniProt P01116, Q61L)
HRAS: GTPase HRas (HRAS, Homo sapiens, UniProt P01112)
KRAS G13D: GTPase KRas (KRAS, Homo sapiens, UniProt P01116, G13D)
KRAS Q61R: GTPase KRas (KRAS, Homo sapiens, UniProt P01116, Q61R)
It gave 47.5% and 42.3% and 40.7% for normalized BRET (KRAS Q61L; 2.22 µM).
It gave 117% for normalized BRET (HRAS; 39.1 nM).
The normalized BRET was 37.5% and 22.5% and 21% (KRAS G13D; 6.67 µM).
It gave 116% for normalized BRET (HRAS; 2.5 µM).
The normalized BRET was 83.6% and 82.8% and 80.7% (KRAS Q61L; 247 nM).
It gave 125% and 90.8% and 130% for normalized BRET (KRAS Q61R; 6.67 µM).
The normalized BRET was 16.2% and 20.3% and 24.3% (GTPase KRas (KRAS, Homo sapiens, UniProt P01116, Q61H); 6.67 µM).
For GTPase KRas (KRAS, Homo sapiens, UniProt P01116, G12D); 247 nM: normalized BRET read 88.9% and 84.7%.
KRAS G13D; 27.4 nM — normalized BRET: 99.2% and 87.9% and 88.3%.
KRAS Q61R; 741 nM — normalized BRET: 98.1% and 81.3% and 102%.

Set 2
SMILES: CCN1/C(=C/C=C2\CCCC(/C=C/C3=[N+](CC)c4ccccc4C3(C)C)=C2NCCCCCCCCN2CCC(Nc3nc4ccccc4n3Cc3ccc(F)cc3)CC2)C(C)(C)c2ccccc21
Cell line: U-87 MG
Tested at: concentration not given
Baseline: DMSO
refers to: SAMD9L mRNA — “log2 fold change”: -0.885.
The “log2 fold change” was -3.33 (refers to: RASL10B mRNA).
refers to: SLC16A6 mRNA — “log2 fold change”: 1.56.
refers to: RNF26 mRNA — “log2 fold change”: -1.28.
It gave 1.18 for “log2 fold change” (refers to: IRF7 mRNA).
The “log2 fold change” was 1.08 (refers to: R3HCC1L mRNA).
The “log2 fold change” was -1.39 (refers to: RNF182 mRNA).
The “log2 fold change” was 1.76 (refers to: RGS7 mRNA).
For refers to: ABLIM3 mRNA: “log2 fold change” read 1.3.
For refers to: TMEM164 mRNA: “log2 fold change” read -1.32.
It gave -0.848 for “log2 fold change” (refers to: FMNL1 mRNA).

Set 3
Structure (SMILES): COc1cc(C(=O)OCCCN2CCCN(CCCOC(=O)c3cc(OC)c(OC)c(OCc4ccc([N+](=O)[O-])cc4)c3)CC2)cc(OC)c1OC
Route: intrathecal
female mouse, formalin pain; 1 nmol, 0 to 5 min — licking duration: 159 s and 174 s and 184 s and 200 s.
For female mouse, formalin pain; 100 nmol, 0 to 5 min: licking duration read 146 s and 184 s and 153 s.
male mouse, formalin pain; 1 nmol, 0 to 5 min — licking duration: 134 s and 187 s and 193 s and 160 s.
It gave 37.9 s and 38.4 s and 21 s and 38.1 s for licking duration (male mouse, formalin pain; 10 nmol, 5 to 10 min).
For female mouse, formalin pain; 10 nmol, 0 to 10 min: licking duration read 189 s and 228 s and 260 s and 182 s.

Set 4
Structure (SMILES): CNc1ncc2cc(-c3cc(OC)cc(OC)c3Cl)c(=O)n(CCc3ccc(NC(=O)C(C#N)=CC(C)(C)N4CCOCC4)cc3)c2n1
Observed: kinase activity
TSSK1B (Homo sapiens, UniProt Q9BXA7); 1 µM — inhibition: -2%.
The inhibition was 0% (STK16 (Homo sapiens, UniProt O75716); 1 µM).
DYRK4 (Homo sapiens, UniProt Q9NR20); 1 µM — inhibition: -2%.
For SRPK3 (Homo sapiens, UniProt Q9UPE1); 1 µM: inhibition read 0%.
It gave 6% for inhibition (TAOK2 (Homo sapiens, UniProt Q9UL54); 0.1 µM).
For MAPK10 (Homo sapiens, UniProt P53779); 1 µM: inhibition read 7%.
For MAP4K2 (Homo sapiens, UniProt Q12851); 0.1 µM: inhibition read -2%.
The inhibition was 2% (MET (Homo sapiens, UniProt P08581); 0.1 µM).
For Cyclin-dependent kinase 2, with cyclin E (CDK2, Homo sapiens, UniProt P24941); 1 µM: inhibition read 4%.
The inhibition was 4% (NEK9 (Homo sapiens, UniProt Q8TD19); 0.1 µM).
For SGK3 (Homo sapiens, UniProt Q96BR1); 0.1 µM: inhibition read -2%.
It gave 2% for inhibition (LATS2 (Homo sapiens, UniProt Q9NRM7); 1 µM).
For HIPK4 (Homo sapiens, UniProt Q8NE63); 1 µM: inhibition read 14%.
It gave 2% for inhibition (TXK (Homo sapiens, UniProt P42681); 1 µM).

Repeated from above (set 1):
It gave 125% and 90.8% and 130% for normalized BRET (KRAS Q61R; 6.67 µM).
The normalized BRET was 16.2% and 20.3% and 24.3% (GTPase KRas (KRAS, Homo sapiens, UniProt P01116, Q61H); 6.67 µM).
